Results pooled from the literature.
Each line is one published result; not all experiments were run side by side. Numbers after ± are the reported error. In brackets after ≈: the same amount, converted by molar mass.
Organism: Escherichia coli

O=C(CCCc1cn(C[C@H]2O[C@@H]3O[C@H]4[C@H](O)[C@@H](O)[C@@H](O[C@H]5[C@H](O)[C@@H](O)[C@@H](O[C@H]6[C@H](O)[C@@H](O)[C@@H](O[C@H]7[C@H](O)[C@@H](O)[C@@H](O[C@H]8[C@H](O)[C@@H](O)[C@@H](O[C@H]2[C@H](O)[C@H]3O)O[C@@H]8Cn2cc(CCCC(=O)N[C@H]3CCOC3=O)nn2)O[C@@H]7Cn2cc(CCCC(=O)N[C@H]3CCOC3=O)nn2)O[C@@H]6Cn2cc(CCCC(=O)N[C@H]3CCOC3=O)nn2)O[C@@H]5Cn2cc(CCCC(=O)N[C@H]3CCOC3=O)nn2)O[C@@H]4Cn2cc(CCCC(=O)N[C@H]3CCOC3=O)nn2)nn1)N[C@H]1CCOC1=O gave an inhibition of 2 ± 1% (LuxR reporter, antagonist; DH5α sensor strain; 1 µM, added: OHHL 200 nM).
The inhibition zone of CC(CCCOC(=O)CCC[N+](C)(C)C)C1CCC2C3CCC4CC(OC(=O)CCC[N+](C)(C)C)CCC4(C)C3CC(OC(=O)CCC[N+](C)(C)C)C12C (centres unmarked) is reported as 10 mm (microbial growth, disc diffusion; ATCC25922; 125 µg/disc, 24 h).
O=c1c(O)ccc(Br)cc1O gave an MIC80 of 19.8 µM (≈ 4.3 µg/mL) (microbial growth, broth dilution; ATCC35218).
COc1c(C)c(OCc2ccccc2)c(C)c(OCc2ccccc2)c1C(=O)/C=C/c1ccccc1 gave an MBC of greater than 5000 µg/mL (microbial killing, broth dilution; ATCC25922).
CC(C)C[C@H](NC(=O)[C@H](Cc1ccc(O)cc1)NC(=O)[C@@H]1CCCN1C(=O)[C@H](CCCNC(=N)N)NC(=O)[C@@H]1CCCN1C(=O)[C@H](CCCCN)NC(=O)[C@H](CC(=O)O)NC(=O)[C@@H]1CCCN1C(=O)[C@H](CCCNC(=N)N)NC(=O)C1(N)CCCCC1)C(=O)N1CCC[C@H]1C(=O)N[C@@H](CCCNC(=N)N)C(=O)N1CCC[C@H]1C(=O)N[C@@H](CCCNC(=N)N)C(=O)N1CCC[C@H]1C(=O)N1CCC[C@H]1C(=O)N[C@@H](CCCNC(=N)N)C(=O)N1CCC[C@H]1C(=O)N[C@H](C(=O)N[C@@H](CCCNC(=N)N)C(=O)N[C@@H](CSCc1ccc(CSC[C@H](NC(=O)[C@H](CCCNC(=N)N)NC(=O)[C@@H](NC(=O)[C@@H]2CCCN2C(=O)[C@H](CCCNC(=N)N)NC(=O)[C@@H]2CCCN2C(=O)[C@@H]2CCCN2C(=O)[C@H](CCCNC(=N)N)NC(=O)[C@@H]2CCCN2C(=O)[C@H](CCCNC(=N)N)NC(=O)[C@@H]2CCCN2C(=O)[C@H](CC(C)C)NC(=O)[C@H](Cc2ccc(O)cc2)NC(=O)[C@@H]2CCCN2C(=O)[C@H](CCCNC(=N)N)NC(=O)[C@@H]2CCCN2C(=O)[C@H](CCCCN)NC(=O)[C@H](CC(=O)O)NC(=O)[C@@H]2CCCN2C(=O)[C@H](CCCNC(=N)N)NC(=O)C2(N)CCCCC2)C(C)C)C(=O)NN)cc1)C(=O)NN)C(C)C gave an MDC of 11.8 ± 0.6 µg/mL (membrane disruption, propidium iodide uptake; 25922; 90 min, 37 °C).
COc1cc(C(=O)O)ccc1NC(=O)c1ccc(NC(=O)c2ccc(NC(=O)[C@H](Cc3c[nH]nn3)NC(=O)c3ccc(NC(=O)/C(C)=C/c4ccc(O)cc4)cc3)cc2)cc1O has an MIC of 0.125 µg/mL (≈ 0.149 µM) (broth microdilution; BW25113).
N=C(N)NCCC[C@@H]1NC(=O)[C@H](CCCNC(=N)N)NC(=O)[C@@H](CCCNC(=N)N)NC(=O)[C@@H](CCCNC(=N)N)NC(=O)[C@@H](C(c2ccccc2)c2ccccc2)NC(=O)[C@H](Cc2c[nH]c3ccccc23)NC(=O)[C@@H](C(c2ccccc2)c2ccccc2)NC1=O: “time to complete killing” 3 to 4 h (ATCC BAA-2452; MIC).
The IC50 of O=C(CCCc1cn(C[C@H]2O[C@@H]3O[C@H]4[C@H](O)[C@@H](O)[C@@H](O[C@H]5[C@H](O)[C@@H](O)[C@@H](O[C@H]6[C@H](O)[C@@H](O)[C@@H](O[C@H]7[C@H](O)[C@@H](O)[C@@H](O[C@H]8[C@H](O)[C@@H](O)[C@@H](O[C@H]9[C@H](O)[C@@H](O)[C@@H](O[C@H]2[C@H](O)[C@H]3O)O[C@@H]9Cn2cc(CCCC(=O)N[C@H]3CCOC3=O)nn2)O[C@@H]8Cn2cc(CCCC(=O)N[C@H]3CCOC3=O)nn2)O[C@@H]7Cn2cc(CCCC(=O)N[C@H]3CCOC3=O)nn2)O[C@@H]6Cn2cc(CCCC(=O)N[C@H]3CCOC3=O)nn2)O[C@@H]5Cn2cc(CCCC(=O)N[C@H]3CCOC3=O)nn2)O[C@@H]4Cn2cc(CCCC(=O)N[C@H]3CCOC3=O)nn2)nn1)N[C@H]1CCOC1=O is reported as 10 to 20 µM (LuxR reporter, antagonist; DH5α sensor strain; added: OHHL 200 nM).

Excerpt of the above:
The IC50 of O=C(CCCc1cn(C[C@H]2O[C@@H]3O[C@H]4[C@H](O)[C@@H](O)[C@@H](O[C@H]5[C@H](O)[C@@H](O)[C@@H](O[C@H]6[C@H](O)[C@@H](O)[C@@H](O[C@H]7[C@H](O)[C@@H](O)[C@@H](O[C@H]8[C@H](O)[C@@H](O)[C@@H](O[C@H]9[C@H](O)[C@@H](O)[C@@H](O[C@H]2[C@H](O)[C@H]3O)O[C@@H]9Cn2cc(CCCC(=O)N[C@H]3CCOC3=O)nn2)O[C@@H]8Cn2cc(CCCC(=O)N[C@H]3CCOC3=O)nn2)O[C@@H]7Cn2cc(CCCC(=O)N[C@H]3CCOC3=O)nn2)O[C@@H]6Cn2cc(CCCC(=O)N[C@H]3CCOC3=O)nn2)O[C@@H]5Cn2cc(CCCC(=O)N[C@H]3CCOC3=O)nn2)O[C@@H]4Cn2cc(CCCC(=O)N[C@H]3CCOC3=O)nn2)nn1)N[C@H]1CCOC1=O is reported as 10 to 20 µM (LuxR reporter, antagonist; DH5α sensor strain; added: OHHL 200 nM).
